Experimental data collected from several papers.
Each line is one published result; not all experiments were run side by side. Several values in a cell are separate wells, animals, samples, runs or records.
Target: Tyrosine-protein kinase Mer (MERTK, Homo sapiens, UniProt Q12866)

The remaining binding of `Cc1cc(NC(=O)[C@H](O)c2cc(F)cc(F)c2)ccc1-c1cnc(N)c(C(=O)NC(C)C)c1` is reported as 50% (binding, competition with immobilised ligand; 1 µM).
For `CCN1CCN(Cc2ccc(NC(=O)c3ccc(C)c(NC(=O)c4cncc(-c5cccs5)c4)c3)cc2C(F)(F)F)CC1`, the remaining binding was 36% (binding, competition with immobilised ligand; 1 µM).
For `C=CC(=O)N1CCc2ccc(-n3c(=O)ccc4cnc5ccc(-c6cnn(C)c6)cc5c43)cc21`, the remaining binding was 78% (KINOMEscan; 1 µM; relative to: DMSO control).
The remaining activity of `Nc1ncc(-c2cc(-c3cnn(CC(F)(F)F)c3)ncc2F)nc1C(=O)NC1CNCC(F)C1` (stereo not drawn) is reported as 7.53% (enzyme activity; 1 µM; relative to: DMSO control).
`COCC12C(=O)NC3C4(C(OC)CC1O)C1CC5(O)C(OC)C(O)C(OC(C)=O)(C1C5OC(=O)c1ccccc1)C3(O)C(OC)C24` (stereo not drawn) has a remaining activity of 108% and 135% (kinase activity, inhibitor, ProQinase kinase profiling; 25 µM; relative to: control).
With `C=CC(=O)N1Cc2nc(-c3cc(-c4cc(Cl)cnc4Cl)c(F)cc3F)n(-c3ccncn3)c2C1` the inhibition was 7.4% (cell-free assay, inhibitor; 1 µM).
The inhibition of `O=C(Nc1ccc(Oc2ncnc3[nH]cc(-c4ccccc4)c23)c(F)c1)c1c2n(n(-c3cc(F)ccc3F)c1=O)CCCC2` is reported as 96% (enzyme activity, inhibitor; 0.5 µM).
For `CC(C)=CC1OC(C)(C)C2C=C3C(=O)C(Cl)=CC(O)C3C3C(O)C4OC4C(=O)C132` (stereo not drawn), the remaining binding was 77% (cell-free assay, competition with immobilised ligand; 10 µM).
For `CNC(=O)C1CCN(c2cc(C)c(F)cc2NC(=O)c2ccc(-c3cc(O)ccc3C)c(C)c2)CC1`, the remaining binding was 92% (binding, competition with immobilised ligand; 1 µM).
`COc1c(OCCCN2CCOCC2)ccc2c1N=C(NC(=O)c1cnc(N)nc1)N1CCN=C21` has a remaining activity of 101% (kinase activity, inhibitor; 1 µM; relative to: untreated control).
The inhibition of `Cc1cccc(O[C@H]2CCC[C@@H](C(C)CNCc3ccncc3)C2)c1` (relative stereo) is reported as 3% (enzyme activity, inhibitor; 10 µM).
With `NC(=O)[C@@H](O)C[C@H]1CCc2sc3ncnc(O[C@H]4CC[C@H](N5CCOCC5)CC4)c3c21` the inhibition was 42% (enzyme activity, inhibitor; 10 µM).
With `COc1c(Cl)cccc1Nc1c(-c2ccncc2C#C[C@@]2(C)CCCN2C(=O)/C=C/CN(C)C)[nH]c2c1C(=O)NCC2` the remaining binding was 100% (binding, competition with immobilised ligand; 3 µM).
For `CNC1C[S+]2CC[S+]3CC[S+](C1)[Ru-4]321([N]=C=S)[n]2c3ccc(OC)cc3c3c4c(c5cc(F)c[n+]1c5c32)C(=O)NC4=O` (stereo not drawn), the remaining binding was 100% (KinomeScan; 0.1 µM; relative to: untreated).
Under “activity vs control”, `O=C(Cc1ccc(OCc2ccccc2)cc1)NC1(C(=O)O)CCN(C(=O)c2ccc(-c3cccc(Cl)c3)cc2)CC1` is recorded as 106% (enzyme activity, inhibitor; 10 µM).
For `COc1ccc(NC(=O)Nc2ccc3c(c2)C(=O)N(C(C)CO)CC(C)C(CN(C)Cc2ccc4c(c2)OCO4)O3)cc1` (stereo not drawn), the remaining activity was 103% (kinase activity, KinaseProfiler; 0.03 µM, species human; relative to: control).
`COc1cc(Nc2nc(C)cc(-c3cnn4nc(OC)ccc34)n2)cc(C(F)(F)F)c1` gave a remaining activity of 98% (inhibitor; 1 µM; relative to: control).
The inhibition of `C=CC(=O)Nc1cccc(-c2cnc3[nH]cc(C(=O)NC(C)(C)C)c3n2)c1` is reported as 13% (enzyme activity, inhibitor; 0.1 µM).

Excerpt of the above:
With `COc1c(Cl)cccc1Nc1c(-c2ccncc2C#C[C@@]2(C)CCCN2C(=O)/C=C/CN(C)C)[nH]c2c1C(=O)NCC2` the remaining binding was 100% (binding, competition with immobilised ligand; 3 µM).
For `CNC1C[S+]2CC[S+]3CC[S+](C1)[Ru-4]321([N]=C=S)[n]2c3ccc(OC)cc3c3c4c(c5cc(F)c[n+]1c5c32)C(=O)NC4=O` (stereo not drawn), the remaining binding was 100% (KinomeScan; 0.1 µM; relative to: untreated).
